Measured values gathered from unrelated publications.
Every numbered part comes from another study and shows a few of its results, in no order. “And” joins repeats or separate records; there may be more than shown.
UniProt Q9UIK4, sequence (whole entry, looked up): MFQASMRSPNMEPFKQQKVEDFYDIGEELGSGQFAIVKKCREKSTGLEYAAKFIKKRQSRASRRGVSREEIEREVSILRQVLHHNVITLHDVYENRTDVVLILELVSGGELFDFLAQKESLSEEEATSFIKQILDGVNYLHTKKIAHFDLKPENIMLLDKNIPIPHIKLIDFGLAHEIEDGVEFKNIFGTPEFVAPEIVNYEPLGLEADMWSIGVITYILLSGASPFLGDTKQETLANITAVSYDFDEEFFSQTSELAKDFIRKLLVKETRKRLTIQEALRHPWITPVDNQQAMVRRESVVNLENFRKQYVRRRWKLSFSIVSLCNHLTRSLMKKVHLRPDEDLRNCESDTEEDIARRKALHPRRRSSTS
UniProt Q15375, sequence (whole entry, looked up): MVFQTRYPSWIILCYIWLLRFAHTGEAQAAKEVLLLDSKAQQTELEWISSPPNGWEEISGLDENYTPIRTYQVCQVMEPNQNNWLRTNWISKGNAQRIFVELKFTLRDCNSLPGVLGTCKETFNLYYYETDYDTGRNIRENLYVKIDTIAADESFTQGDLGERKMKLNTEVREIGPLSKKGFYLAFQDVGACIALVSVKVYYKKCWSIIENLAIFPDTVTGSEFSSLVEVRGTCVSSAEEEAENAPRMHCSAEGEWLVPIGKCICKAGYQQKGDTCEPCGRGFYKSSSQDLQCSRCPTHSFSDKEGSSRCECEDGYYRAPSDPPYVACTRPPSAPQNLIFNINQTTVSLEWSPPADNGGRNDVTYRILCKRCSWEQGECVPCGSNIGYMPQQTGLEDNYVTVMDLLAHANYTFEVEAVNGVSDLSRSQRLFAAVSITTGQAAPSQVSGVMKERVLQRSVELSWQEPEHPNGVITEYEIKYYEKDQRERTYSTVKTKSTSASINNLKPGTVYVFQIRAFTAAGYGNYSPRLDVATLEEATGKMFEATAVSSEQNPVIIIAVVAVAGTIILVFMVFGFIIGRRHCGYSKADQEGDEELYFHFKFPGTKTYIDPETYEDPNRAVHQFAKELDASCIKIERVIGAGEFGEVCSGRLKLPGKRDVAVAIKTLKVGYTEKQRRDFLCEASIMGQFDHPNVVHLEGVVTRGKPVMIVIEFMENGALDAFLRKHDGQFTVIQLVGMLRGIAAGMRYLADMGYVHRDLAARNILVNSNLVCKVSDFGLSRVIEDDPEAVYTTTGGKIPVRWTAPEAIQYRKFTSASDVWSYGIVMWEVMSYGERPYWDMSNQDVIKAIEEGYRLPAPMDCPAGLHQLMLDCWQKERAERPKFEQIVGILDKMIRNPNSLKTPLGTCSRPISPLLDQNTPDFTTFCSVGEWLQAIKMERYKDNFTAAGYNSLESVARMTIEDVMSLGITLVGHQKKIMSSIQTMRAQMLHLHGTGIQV
UniProt Q13546, sequence (whole entry, looked up): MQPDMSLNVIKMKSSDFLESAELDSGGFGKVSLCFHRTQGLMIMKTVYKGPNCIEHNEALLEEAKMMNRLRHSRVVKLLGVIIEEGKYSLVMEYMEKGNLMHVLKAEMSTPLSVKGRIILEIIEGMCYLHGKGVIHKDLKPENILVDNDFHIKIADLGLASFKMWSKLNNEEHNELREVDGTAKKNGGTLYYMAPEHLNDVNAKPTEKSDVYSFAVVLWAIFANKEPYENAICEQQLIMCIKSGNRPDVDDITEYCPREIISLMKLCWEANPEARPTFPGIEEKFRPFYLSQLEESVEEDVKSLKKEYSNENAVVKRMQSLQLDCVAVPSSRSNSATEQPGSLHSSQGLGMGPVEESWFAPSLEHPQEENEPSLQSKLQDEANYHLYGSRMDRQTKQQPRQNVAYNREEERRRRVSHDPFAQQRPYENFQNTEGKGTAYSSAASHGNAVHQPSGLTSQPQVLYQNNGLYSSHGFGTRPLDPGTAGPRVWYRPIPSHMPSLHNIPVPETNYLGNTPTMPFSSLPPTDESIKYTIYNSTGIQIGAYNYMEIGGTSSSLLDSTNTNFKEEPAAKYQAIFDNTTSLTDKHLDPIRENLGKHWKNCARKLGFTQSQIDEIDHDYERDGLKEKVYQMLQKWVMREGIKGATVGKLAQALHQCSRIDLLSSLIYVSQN
UniProt Q86UE8, sequence (whole entry, looked up): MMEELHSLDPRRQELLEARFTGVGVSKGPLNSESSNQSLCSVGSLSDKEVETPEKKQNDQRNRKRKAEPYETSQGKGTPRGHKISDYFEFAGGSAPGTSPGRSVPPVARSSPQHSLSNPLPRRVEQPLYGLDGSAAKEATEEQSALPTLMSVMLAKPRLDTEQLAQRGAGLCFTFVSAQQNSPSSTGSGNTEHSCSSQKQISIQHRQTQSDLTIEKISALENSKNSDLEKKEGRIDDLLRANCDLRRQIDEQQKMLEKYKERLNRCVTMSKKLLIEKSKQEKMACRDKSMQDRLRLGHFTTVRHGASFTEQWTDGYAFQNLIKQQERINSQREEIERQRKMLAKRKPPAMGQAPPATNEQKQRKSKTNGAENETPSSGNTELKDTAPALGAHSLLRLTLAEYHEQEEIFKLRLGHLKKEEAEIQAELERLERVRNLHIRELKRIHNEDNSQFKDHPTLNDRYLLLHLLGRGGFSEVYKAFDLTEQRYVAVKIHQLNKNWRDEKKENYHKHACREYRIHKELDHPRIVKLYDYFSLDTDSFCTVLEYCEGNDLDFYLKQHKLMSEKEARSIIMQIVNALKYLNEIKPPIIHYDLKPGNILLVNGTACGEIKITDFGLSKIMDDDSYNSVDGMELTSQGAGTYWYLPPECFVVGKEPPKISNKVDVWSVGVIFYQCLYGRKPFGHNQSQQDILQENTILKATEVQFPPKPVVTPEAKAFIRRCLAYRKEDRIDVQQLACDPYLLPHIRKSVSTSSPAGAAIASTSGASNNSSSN
UniProt Q00536, sequence (whole entry, looked up): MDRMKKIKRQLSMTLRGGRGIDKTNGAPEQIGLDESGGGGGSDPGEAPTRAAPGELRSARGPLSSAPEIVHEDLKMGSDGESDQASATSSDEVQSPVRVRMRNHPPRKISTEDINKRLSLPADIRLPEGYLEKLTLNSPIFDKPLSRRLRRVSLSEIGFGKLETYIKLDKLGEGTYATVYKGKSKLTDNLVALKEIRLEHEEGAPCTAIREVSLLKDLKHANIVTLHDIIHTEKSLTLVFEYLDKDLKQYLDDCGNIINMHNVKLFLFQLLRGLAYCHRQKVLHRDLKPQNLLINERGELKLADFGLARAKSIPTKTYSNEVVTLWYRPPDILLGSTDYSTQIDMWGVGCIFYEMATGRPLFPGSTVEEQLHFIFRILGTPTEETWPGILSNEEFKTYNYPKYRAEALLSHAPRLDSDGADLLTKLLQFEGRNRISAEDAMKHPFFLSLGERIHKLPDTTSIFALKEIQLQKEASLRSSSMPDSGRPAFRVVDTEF
UniProt P48729, sequence (whole entry, looked up): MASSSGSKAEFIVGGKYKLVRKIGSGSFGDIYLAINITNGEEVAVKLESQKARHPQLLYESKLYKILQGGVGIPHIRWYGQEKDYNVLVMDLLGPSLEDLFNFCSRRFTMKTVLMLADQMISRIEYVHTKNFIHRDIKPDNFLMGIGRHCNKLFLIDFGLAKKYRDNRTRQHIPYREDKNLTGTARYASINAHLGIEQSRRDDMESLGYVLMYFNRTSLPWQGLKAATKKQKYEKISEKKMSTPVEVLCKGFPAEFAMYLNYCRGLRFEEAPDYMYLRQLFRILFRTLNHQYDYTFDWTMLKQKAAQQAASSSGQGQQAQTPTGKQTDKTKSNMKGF
UniProt P32298, sequence (whole entry, looked up): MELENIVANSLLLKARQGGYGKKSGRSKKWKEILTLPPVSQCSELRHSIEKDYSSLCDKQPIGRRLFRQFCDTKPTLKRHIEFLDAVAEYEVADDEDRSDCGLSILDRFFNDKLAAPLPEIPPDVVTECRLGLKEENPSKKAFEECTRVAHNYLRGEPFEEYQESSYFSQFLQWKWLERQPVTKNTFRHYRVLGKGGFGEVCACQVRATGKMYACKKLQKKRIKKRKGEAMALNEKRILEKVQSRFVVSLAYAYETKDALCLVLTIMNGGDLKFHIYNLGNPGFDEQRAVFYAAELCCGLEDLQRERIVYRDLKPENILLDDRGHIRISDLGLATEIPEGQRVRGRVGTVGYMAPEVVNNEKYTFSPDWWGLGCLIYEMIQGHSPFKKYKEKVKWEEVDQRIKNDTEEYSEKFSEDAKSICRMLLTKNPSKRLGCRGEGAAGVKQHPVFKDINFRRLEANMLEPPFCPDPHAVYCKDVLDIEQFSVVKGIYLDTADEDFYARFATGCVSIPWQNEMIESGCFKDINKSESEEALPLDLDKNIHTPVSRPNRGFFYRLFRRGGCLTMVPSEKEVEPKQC
UniProt Q8N752, sequence (whole entry, looked up): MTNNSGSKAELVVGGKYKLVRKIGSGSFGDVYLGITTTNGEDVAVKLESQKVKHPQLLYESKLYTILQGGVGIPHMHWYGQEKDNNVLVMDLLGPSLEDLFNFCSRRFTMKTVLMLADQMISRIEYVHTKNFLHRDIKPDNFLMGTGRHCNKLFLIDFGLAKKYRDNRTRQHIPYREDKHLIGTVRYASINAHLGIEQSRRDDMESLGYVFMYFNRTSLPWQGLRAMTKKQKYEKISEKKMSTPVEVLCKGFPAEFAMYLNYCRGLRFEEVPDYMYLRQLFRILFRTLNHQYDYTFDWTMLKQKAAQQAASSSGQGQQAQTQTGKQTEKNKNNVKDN

Block 1
Target: Eukaryotic initiation factor 4A-III (Homo sapiens, UniProt P38919)
UniProt P38919, sequence (whole entry, looked up): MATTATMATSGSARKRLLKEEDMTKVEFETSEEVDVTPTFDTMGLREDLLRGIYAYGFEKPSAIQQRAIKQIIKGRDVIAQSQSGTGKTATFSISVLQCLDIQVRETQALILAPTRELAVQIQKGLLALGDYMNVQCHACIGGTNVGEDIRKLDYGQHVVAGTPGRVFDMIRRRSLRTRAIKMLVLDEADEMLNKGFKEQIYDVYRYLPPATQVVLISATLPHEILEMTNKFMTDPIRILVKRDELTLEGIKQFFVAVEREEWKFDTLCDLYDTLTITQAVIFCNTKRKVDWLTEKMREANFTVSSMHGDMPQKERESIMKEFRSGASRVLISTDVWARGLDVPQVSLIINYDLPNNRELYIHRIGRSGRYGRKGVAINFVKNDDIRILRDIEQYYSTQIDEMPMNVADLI
Read-out: RNA clamping
Technique: fluorescence polarization
Tested at: concentration not given
Added: FAM-labelled poly r(AG)8 RNA
Under “fluorescence polarization change”, COC(=O)[C@H]1C(=O)[C@@]2(NC(C)C)c3c(OC)cc(OC)cc3O[C@@]2(c2ccc(OC)cc2)[C@@H]1c1ccccc1 is recorded as -0.2 mP.
COc1ccc([C@@]23Oc4cc(OC)cc(OC)c4[C@]2(O)c2nc(-c4ccccc4)nc(OC)c2[C@H]3c2ccccc2)cc1: “fluorescence polarization change” 4.8 mP.
C=CCN[C@@]12C(=O)[C@H](C(=O)OC)[C@@H](c3ccccc3)[C@]1(c1ccc(OC)cc1)Oc1cc(OC)cc(OC)c12 — result for “fluorescence polarization change”: -0.4 mP.
COc1ccc([C@@]23Oc4cc(OC)cc(OC)c4[C@]2(O)[C@H](O)[C@H](CN(C)C)[C@H]3c2ccccc2)cc1 — result for “fluorescence polarization change”: 40.7 mP.
Under “fluorescence polarization change”, COc1ccc([C@@]23Oc4cc(OC)cc(OC)c4[C@]2(O)C2=C(C(=O)N4CCC[C@H]4O2)[C@H]3c2ccccc2)cc1 is recorded as 18.5 mP.
COCCN[C@@]12/C(=N/O)C[C@@H](c3ccccc3)[C@]1(c1ccc(OC)cc1)Oc1cc(OC)cc(OC)c12 — result for “fluorescence polarization change”: 4.6 mP.
Under “fluorescence polarization change”, COc1ccc([C@@]23Oc4cc(OC)cc(OC)c4[C@]2(O)c2nc(-c4cccc(OCc5ccccc5)c4)[nH]c(=O)c2[C@H]3c2ccccc2)cc1 is recorded as -1.6 mP.
C#CCOc1cc(OC)c2c(c1)O[C@@]1(c3ccc(OC)cc3)[C@H](c3ccccc3)c3c(nc4n(c3=O)CCC4)[C@@]21O — result for “fluorescence polarization change”: 10.5 mP.
C#CCNC(=O)/C=C/Cn1c(-c2ccccc2)nc2c(c1=O)[C@@H](c1ccccc1)[C@]1(c3ccc(OC)cc3)Oc3cc(OC)cc(OC)c3[C@]21O: “fluorescence polarization change” 4.6 mP.
COC(=O)[C@@H]1[C@@H](c2ccccc2)[C@]2(c3ccc(OC)cc3)Oc3cc(OC)cc(OC)c3[C@@]23N=C2CCCCN2[C@@]13O: “fluorescence polarization change” 25.4 mP.
For COc1cc(O)cc2c1[C@]1(O)[C@H](O)[C@H](C(=O)N(C)OC)[C@@H](c3ccccc3)[C@]1(c1ccc(Br)cc1)O2, “fluorescence polarization change” read 51.1 mP and 28 mP.
COC(=O)[C@H]1C(=O)[C@@]2(NC34C[C@H]5C[C@@H](C3)C[C@@H](C4)C5)c3c(OC)cc(OC)cc3O[C@@]2(c2ccc(OC)cc2)[C@@H]1c1ccccc1 — result for “fluorescence polarization change”: -0.9 mP.
COc1ccc([C@@]23Oc4cc(OC)cc(OC)c4[C@]2(O)[C@H](O)[C@H](C(=O)c2ccco2)[C@H]3c2ccc(O)cc2)cc1: “fluorescence polarization change” 7 mP.

Block 2
Cell line: A-375
Tested at: 100 µM
Time: 18 h
CC1Cc2ccccc2N1NC(=O)c1ccc(Cl)c(S(N)(=O)=O)c1 (stereo not drawn) has a viability of 99.8%.
CC#CCn1c(N2CCC[C@@H](N)C2)nc2c1c(=O)n(Cc1nc(C)c3ccccc3n1)c(=O)n2C gave a viability of 63.6%.
With COc1cc(Nc2c(C#N)cnc3cc(OCCCN4CCN(C)CC4)c(OC)cc23)c(Cl)cc1Cl the viability was 97.2%.
The viability of C[C@]12CC[C@@H]3c4ccc(OS(=O)(=O)O)cc4CC[C@H]3[C@@H]1CCC2=O is reported as 106%.
With COC(=O)C1=C(C)NC(C)=C(C(=O)OC(C)(C)CN(C)CCC(c2ccccc2)c2ccccc2)C1c1cccc([N+](=O)[O-])c1 (stereo not drawn) the viability was 68.3%.
CCCCCCNC(=O)n1cc(F)c(=O)[nH]c1=O has a viability of 81.3%.
The viability of CCCCCCCCCCCCCCCCOc1nc2ccc(C)cc2c(=O)o1 is reported as 106%.
Cc1cc(=O)[nH]c(=S)[nH]1 has a viability of 103%.
CC(C(=O)O)c1cccc(Oc2ccccc2)c1 (stereo not drawn) gave a viability of 100%.
CCN(Cc1ccncc1)C(=O)C(CO)c1ccccc1 (stereo not drawn) has a viability of 95.3%.
The viability of CCCNC(C)C(=O)Nc1c(C)csc1C(=O)OC (stereo not drawn) is reported as 94.7%.
With N#C[C@@H]1CCCN1C(=O)CNC12CC3CC(CC(O)(C3)C1)C2 the viability was 94%.
The viability of CCCc1nc2c(C)cc(-c3nc4ccccc4n3C)cc2n1Cc1ccc(-c2ccccc2C(=O)O)cc1 is reported as 76%.
For CC=Cc1ccc(OC)cc1, the viability was 81%.
The viability of Cc1cn([C@H]2C[C@H](N=[N+]=[N-])[C@@H](CO)O2)c(=O)[nH]c1=O is reported as 109%.

Block 3
Target: Lymphokine-activated killer T-cell-originated protein kinase (PBK, Homo sapiens, UniProt Q96KB5)
Read-out: enzyme activity
Action: inhibitor
Tested at: 0.5 µM
Baseline: control
Construct (Q96KB5 1-322): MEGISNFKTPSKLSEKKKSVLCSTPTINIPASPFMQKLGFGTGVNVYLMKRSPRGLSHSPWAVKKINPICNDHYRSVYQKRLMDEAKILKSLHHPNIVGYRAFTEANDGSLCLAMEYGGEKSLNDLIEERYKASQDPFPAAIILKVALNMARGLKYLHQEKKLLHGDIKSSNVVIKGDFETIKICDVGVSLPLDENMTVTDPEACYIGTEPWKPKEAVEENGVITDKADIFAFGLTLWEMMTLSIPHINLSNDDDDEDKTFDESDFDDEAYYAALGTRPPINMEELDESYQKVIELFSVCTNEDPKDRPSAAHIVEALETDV
CC(C)c1nn(-c2c(Cl)cccc2Cl)c2nc(Cc3ccc(OCCO)cc3)[nH]c(=O)c12 gave a remaining activity of 101%.
Cc1nc(Nc2ncc(C(=O)Nc3c(C)cccc3Cl)s2)cc(N2CCN(CCO)CC2)n1 gave a remaining activity of 101%.
With O=C(Nc1ccc(Cl)cc1)c1ccccc1NCc1ccncc1 the remaining activity was 88.5%.
The remaining activity of C[S+]([O-])c1ccc(-c2nc(-c3ccncc3)c(-c3ccc(F)cc3)[nH]2)cc1 (stereo not drawn) is reported as 102%.
For COc1cc2ncc(-c3ccccc3)nc2cc1OC, the remaining activity was 85.5%.
COc1cc2ncnc(N3CCN(C(=O)Nc4ccc(Oc5ccccc5)cc4)CC3)c2cc1OC gave a remaining activity of 85.8%.
Nc1[nH]nc2nnc(-c3c(-c4ccccc4)nn4ccccc34)cc12 gave a remaining activity of 95%.
With COc1ccc(-c2cnc3c(-c4ccsc4)cnn3c2)cc1 the remaining activity was 91.6%.
CC(=O)O/N=C1/C(c2c(O)[nH]c3cc(Br)ccc23)=Nc2ccccc21 has a remaining activity of 76.8%.
CN(C)CCCn1cc(C2=C(c3c[nH]c4ccccc34)C(=O)NC2=O)c2ccccc21 gave a remaining activity of 81.3%.
With Cc1ccc(NC(=O)c2ccc(CN3CCN(C)CC3)cc2)cc1Nc1nccc(-c2cccnc2)n1 the remaining activity was 101%.

Block 4
Compound: CS(=O)(=O)N1CCCC(NC(=O)[C@H](CCC2CCCCC2)NC(=O)c2ccc(CNC(=O)c3cnc4ccccn34)cc2)C1 (stereo partly drawn)
Read-out: cell-free assay
Technique: competition with immobilised ligand
Tested at: 0.1 µM
The remaining binding was 100% (GRK4 (Homo sapiens, UniProt P32298)).
The remaining binding was 100% (PIKFYVE (Homo sapiens, UniProt Q9Y2I7)).
The remaining binding was 100% (CDK16 (Homo sapiens, UniProt Q00536)).
For MAPK9 (Homo sapiens, UniProt P45984): remaining binding read 90%.
CSNK1A1L (Homo sapiens, UniProt Q8N752) — remaining binding: 99%.
For PDPK1 (Homo sapiens, UniProt O15530): remaining binding read 100%.
It gave 96% for remaining binding (EPHA7 (Homo sapiens, UniProt Q15375)).
RIPK1 (Homo sapiens, UniProt Q13546) — remaining binding: 88%.
For ERN1 (Homo sapiens, UniProt O75460): remaining binding read 100%.
It gave 94% for remaining binding (DAPK2 (Homo sapiens, UniProt Q9UIK4)).
It gave 37% for remaining binding (Tyrosine-protein kinase ABL1, non-phosphorylated (ABL1, Homo sapiens, UniProt P00519, Q252H)).
It gave 100% for remaining binding (EGFR (Homo sapiens, UniProt P00533, G719C)).
The remaining binding was 89% (TLK2 (Homo sapiens, UniProt Q86UE8)).
MYLK2 (Homo sapiens, UniProt Q9H1R3) — remaining binding: 90%.
For CSNK1A1 (Homo sapiens, UniProt P48729): remaining binding read 100%.

For quick reference, copied from above (block 4):
For CSNK1A1 (Homo sapiens, UniProt P48729): remaining binding read 100%.
RIPK1 (Homo sapiens, UniProt Q13546) — remaining binding: 88%.
It gave 94% for remaining binding (DAPK2 (Homo sapiens, UniProt Q9UIK4)).
The remaining binding was 100% (PIKFYVE (Homo sapiens, UniProt Q9Y2I7)).
The remaining binding was 89% (TLK2 (Homo sapiens, UniProt Q86UE8)).
